Experimental data of several laboratories.
A part holds a random share of what one study measured. Substitutions count along the parent as printed.

Series 1 — technique: protein-binding microarray; molecule type: double-stranded DNA, one strand shown; sample: in vitro; tested at: not given; reading: higher = stronger binding
Target: Myc proto-oncogene protein, bHLH-zipper, MAX partner unstated (MYC, Homo sapiens, UniProt P01106, residues 368-449)
Chain of UniProt P01106 (368-449, looked up): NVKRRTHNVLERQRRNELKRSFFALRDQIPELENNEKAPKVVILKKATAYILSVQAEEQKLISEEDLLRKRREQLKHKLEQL
Setting: k-mer, scored over probes, only values ≥0.25
`GCGGTCAC` has an E-score of 0.264.
`CAAACATG` gave an E-score of 0.264.
`TACCACGA` gave an E-score of 0.368.
`GCGCACGC` gave an E-score of 0.424.
With `CGGACACA` the E-score was 0.256.

Series 2 — technique: DHFR PCA, deep sequencing; sample: yeast; with: (+)-ABA 0.39 µM; baseline: wild-type fitted maximum; reading: higher = stronger binding
Target: ABI1, truncated, D143A, DHFR fusion (Arabidopsis thaliana)
Setting: methotrexate growth selection, single substitutions
Parent: PYL1, truncated, DHFR fusion (Arabidopsis thaliana); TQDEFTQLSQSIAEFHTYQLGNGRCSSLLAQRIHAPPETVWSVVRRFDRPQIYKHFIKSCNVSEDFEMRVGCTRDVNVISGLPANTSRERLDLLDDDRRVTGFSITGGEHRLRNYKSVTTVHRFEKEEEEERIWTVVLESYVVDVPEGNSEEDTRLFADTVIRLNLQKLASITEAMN
For `D97C`, “relative binding score” read 17.6%.
`Q2I` — result for “relative binding score”: 70.4%.
`S27Q` — result for “relative binding score”: -1.7%.
Under “relative binding score”, `V137Y` is recorded as 0.928%.
For `R99N`, “relative binding score” read -5.65%.
For `S11D`, “relative binding score” read 51.9%.
For `R99T`, “relative binding score” read -2.94%.

Series 3 — technique: RNAcompete; molecule type: RNA; sample: in vitro; tested at: 20 nM; setting: 7-mer, probes averaged, single round; baseline: mean of 7-mers; reading: higher = stronger binding
Target: PABPC1L2, full length, GST fusion (mouse, UniProt A0ABA7IW68)
With `GAAUUCA` the 7-mer Z-score was -0.0554.
With `AUUAACC` the 7-mer Z-score was -0.0663.
`GAGUUAG` has a 7-mer Z-score of -0.195.
`AGGACCG` gave a 7-mer Z-score of 0.133.
For `AGUGUGA`, the 7-mer Z-score was 0.0732.
`GCCGACA` has a 7-mer Z-score of -0.0627.
For `GACGUAG`, the 7-mer Z-score was -0.228.
The 7-mer Z-score of `UACUUGC` is reported as -0.229.
For `CGUAUUG`, the 7-mer Z-score was -0.0627.
With `UUAGGAA` the 7-mer Z-score was 0.0877.

Single results of other studies
With `PhoQ, residues 284 288 289 292 302 303 TNASYF` the fold induction was 5.01 (PhoP, residues 12 14 15 18 19 NQGLL (Escherichia coli, UniProt P23836); Sort-seq, item: YFP reporter; E. coli; PhoQ-PhoP variant library, with: 10 µM Mg2+; baseline: high Mg2+ state, higher = stronger signaling).

Some of these lines once more (series 2):
For `S11D`, “relative binding score” read 51.9%.
For `R99N`, “relative binding score” read -5.65%.
`S27Q` — result for “relative binding score”: -1.7%.
`Q2I` — result for “relative binding score”: 70.4%.
